Measured values gathered from unrelated publications.
Lines come from different studies, so protocols differ. ± marks the error that the study gave. In brackets after ≈: the same amount, converted by molar mass.
rep main protease: Replicase polyprotein 1ab, main protease (rep, Severe acute respiratory syndrome coronavirus 2, UniProt P0DTD1)

Molecule | target or system | test | test system | conditions | scale | endpoint | value
Nc1nc(NC2CC2)c2ncn([C@H]3C=C[C@@H](CO)C3)c2n1 | HIV-1 K65R | MTT | MT4 |  |  | IC50 | 1510 ± 705 nM
CC[C@H](C)[C@H](NC(=O)[C@H](CC(C)C)NC(=O)[C@H](CCCCN)NC(=O)[C@H](CC(C)C)NC(=O)CNC(=O)[C@@H](NC(=O)[C@H](CO)NC(=O)[C@@H](NC(=O)[C@@H](NC(=O)[C@H](CCC(N)=O)NC(=O)[C@H](Cc1c[nH]c2ccccc12)NC(=O)[C@H](CCCNC(=N)N)NC(=O)[C@H](CC(N)=O)NC(=O)[C@H](CCCNC(=N)N)NC(=O)[C@H](CCCNC(=N)N)NC(=O)[C@@H](NC(=O)[C@H](Cc1ccccc1)NC(=O)[C@H](CCCNC(=N)N)NC(=O)CNC(=O)[C@H](C)NC(=O)[C@H](CCCNC(=N)N)NC(=O)[C@H](CCCNC(=N)N)NC(=O)[C@H](CCCCN)NC(=O)[C@H](Cc1ccccc1)NC(=O)[C@H](CCCNC(=N)N)NC(=O)CNC(=O)[C@H](Cc1c[nH]c2ccccc12)NC(=O)[C@H](CCCNC(=N)N)NC(=O)CNC(=O)[C@H](CCCNC(=N)N)NC(=O)[C@@H](N)[C@@H](C)O)[C@@H](C)CC)[C@@H](C)CC)[C@@H](C)CC)[C@@H](C)O)C(=O)NCC(=O)O | Clostridium perfringens |  | ATCC 13124 |  |  | MIC | 0.3 µM (≈ 1.17 µg/mL)
COc1ccccc1NC(=O)c1ccccc1Sc1ccc([N+](=O)[O-])cc1Cl | HIV-1 | viral replication, refers to: RT activity | H9 expressing A3G, LAI, X4-tropic wild type | day 7 |  | IC50 | 5000 nM
Ro 31-8220 | porcine epidemic diarrhea virus |  |  | concentration not given |  | viral titre | decreased
CC[C@H](C)[C@H](NC(=O)[C@H](CC(C)C)NC(=O)[C@H](Cc1c[nH]c2ccccc12)NC(=O)[C@H](CCC(N)=O)NC(=O)[C@@H](NC(=O)[C@H](Cc1ccccc1)NC(=O)[C@H](C)NC(=O)[C@H](CCCCNC(=O)COCCOCCNC(=O)COCCOCCNC(=O)CC[C@H](NC(=O)CCCCCCCCCCCCCCCCCCC(=O)O)C(=O)O)NC(=O)[C@H](CCC(N)=O)NC(=O)[C@H](C)NC(=O)[C@@H](NC(=O)[C@H](CCCCN)NC(=O)[C@H](CC(=O)O)NC(=O)[C@H](CC(C)C)NC(=O)C(C)(C)NC(=O)[C@@H](NC(=O)[C@H](CO)NC(=O)[C@H](Cc1ccc(O)cc1)NC(=O)[C@H](CC(=O)O)NC(=O)[C@H](CO)NC(=O)[C@@H](NC(=O)[C@H](Cc1ccccc1)NC(=O)[C@@H](NC(=O)CNC(=O)[C@H](CCC(=O)O)NC(=O)C(C)(C)NC(=O)[C@@H](N)Cc1ccc(O)cc1)[C@@H](C)O)[C@@H](C)O)[C@@H](C)CC)[C@@H](C)CC)C(C)C)C(=O)N[C@@H](C)C(=O)NCC(=O)NCC(=O)N1CCC[C@H]1C(=O)N[C@@H](CO)C(=O)N[C@@H](CO)C(=O)NCC(=O)N[C@@H](C)C(=O)N1CCC[C@H]1C(=O)N1CCC[C@H]1C(=O)N1CCC[C@H]1C(=O)N[C@@H](CO)C(N)=O |  | refers to: treatment-emergent catheter site erythema | healthy subjects | 0.5 mg, multiple ascending dose |  | subjects with adverse event | 0%
O=c1oc(-c2ccccc2Br)nc2cccc(Cl)c12 | rep main protease | viral replication, Gluc reporter | SARS-CoV-2 | 20 µM |  | inhibition | -0.0732%
NC(=O)CCNC(=O)c1ccccc1S | HIV-1 | viral replication | human PBMC, subtype C 98IN017, CXCR4-tropic clinical isolate |  |  | EC50 | 4420 ± 370 nM
O=C(Nc1ccc2c(c1)OCO2)c1ccccc1Sc1ccc([N+](=O)[O-])cc1 | HIV-1 | viral replication, refers to: RT activity | H9 expressing A3G, LAI, X4-tropic wild type | day 7 |  | IC50 | 50000 nM
Cn1cnc(Cn2c(=O)[nH]/c(=N\c3cc4cn(C)nc4cc3Cl)n(Cc3cc(F)c(F)cc3F)c2=O)n1 |  |  | human, normal renal function | oral, 375 mg, vessel puncture site haemorrhage TEAE, Severe severity |  | patients with adverse event | 0%
protamine | feline infectious peritonitis virus | plaque | fcwf-4, type I strain KU-2 | concentration not given |  | infection efficiency | increased
CNc1nc(N)ncc1-c1cn([C@@H]2O[C@H](CO)[C@@H](O)[C@@]2(C)F)cn1 | human cytomegalovirus |  |  | concentration not given |  | antiviral activity | inactive
C=C1C(=O)C23C(O)C1CCC2C12COC3(O)C(O)C1C(C)(C)CCC2OC(C)=O (stereo not shown) | rep main protease | viral replication, Gluc reporter | SARS-CoV-2 | 20 µM |  | inhibition | -5.96%
O=C1Nc2ccc(Cl)cc2[C@@](C#CC2CC2)(C(F)(F)F)O1 | HIV-1 | viral replication, single-round infection | RT mutant G190A |  |  | EC50 | 1.1 ± 0.1 nM
COc1ccccc1NC(=O)c1ccccc1OCc1cccc([N+](=O)[O-])c1 | HIV-1 | viral replication, refers to: RT activity | H9 expressing A3G, LAI, X4-tropic wild type | day 7 |  | IC50 | 7100 nM
COC(CN1CCn2cc(C(=O)NCc3ccc(F)cc3F)c(=O)c(O)c2C1=O)OC | human immunodeficiency virus 1 | single-round vector infection | integrase R263K |  |  | EC50 | 5.7 ± 0.9 nM
COc1ccccc1NC(=O)c1ccccc1Sc1ccccc1 | HIV-1 | viral replication, refers to: RT activity | H9 expressing A3G, LAI, X4-tropic wild type | day 7 |  | IC50 | > 100000 nM
CNc1nc(N)ncc1-c1cn([C@@H]2O[C@H](CO[P@@](=O)(N[C@@H](C)C(=O)OC(C)C)Oc3ccccc3)[C@@H](O)[C@@]2(C)F)cn1 | herpes simplex virus 1 |  |  | concentration not given |  | antiviral activity | inactive
CNC(=O)[C@@H](NC(=O)[C@H](CC(C)C)[C@H](O)C(=O)NO)C(C)(C)C | Daboia russelii venom proteases (SVMP) | protease activity, inhibitor | RJ population | 100 µM, together with: azocasein substrate | relative to: venom alone | remaining activity | 0%
C[C@H]1O[C@@H](O[C@H]2[C@@H](O)C[C@H](O[C@H]3[C@@H](O)C[C@H](O[C@H]4CC[C@@]5(C)[C@H](CC[C@@H]6[C@@H]5CC[C@]5(C)[C@@H](C7=CC(=O)OC7)CC[C@]65O)C4)O[C@@H]3C)O[C@@H]2C)C[C@H](O)[C@@H]1O | human coronavirus OC43 | virus-induced cell killing | MRC-5 | screen |  | maximum inhibition | 32.4%
Cc1cc(/C=C/C#N)cc(C)c1Nc1nc(Nc2ccc(/C=C/C#N)cc2)ncc1N | HIV-1 | viral replication, single-round infection | RT mutant V106A/F227L/L234I |  |  | EC50 | < 2 nM

Molecule | target or system | test | test system | conditions | scale | endpoint | value
COc1ccccc1NC(=O)c1ccccc1OCc1ccc([N+](=O)[O-])cc1 | HIV-1 | viral replication, refers to: RT activity | H9 expressing A3G, LAI, X4-tropic wild type | day 7 |  | IC50 | 2800 nM
C#C[C@]1(CO)O[C@@H](n2cnc3c(N)nc(F)nc32)C[C@@H]1O | HIV-1 K65R | MTT | MT4 |  |  | IC50 | ≤ 1 nM
COC(=O)c1ccc(Oc2ccccc2NC(=O)c2ccccc2OC)cc1 | HIV-1 | viral replication, refers to: RT activity | H9 expressing A3G, LAI, X4-tropic wild type | day 7 |  | IC50 | 10700 nM
C[C@]1(CO)O[C@@H](n2cnc3c(N)nc(N)nc32)C[C@@H]1O | HIV-1 T215F | MTT | MT4 |  |  | IC50 | 139 ± 39.2 nM
N#CC(C#N)=NNc1cccc(Cl)c1 | Escherichia coli | tetracycline MIC, checkerboard | tetracycline-resistant (pBR322) | 42 µM, together with: tetracycline | relative to: MIC alone over combination | fold enhancement | 4 fold
Cn1c(Cn2ccc(C(F)(F)F)c(Oc3cc(Cl)cc(C#N)c3)c2=O)n[nH]c1=O | HIV-1 | viral replication, single-round infection | RT mutant K101E/M184I |  |  | EC50 | 2.3 ± 0.6 nM
CC[C@H](C)[C@H](N)C(=O)N[C@@H](Cc1c[nH]c2ccccc12)C(=O)N[C@@H](CC(C)C)C(=O)N[C@H](C(=O)N[C@@H](C)C(=O)N[C@@H](CC(C)C)C(=O)N[C@@H](CCCCN)C(=O)N[C@@H](Cc1ccccc1)C(=O)N[C@@H](CC(C)C)C(=O)NCC(=O)N[C@@H](CCCCN)C(=O)N[C@@H](Cc1c[nH]cn1)C(=O)N[C@@H](C)C(=O)N[C@@H](C)C(=O)N[C@@H](CCCCN)C(=O)N[C@@H](Cc1c[nH]cn1)C(=O)N[C@@H](CC(C)C)C(=O)N[C@@H](C)C(=O)N[C@@H](CCCCN)C(=O)N[C@@H](CCC(N)=O)C(=O)N[C@@H](CCC(N)=O)C(=O)N[C@@H](CC(C)C)C(=O)N[C@@H](CO)C(=O)N[C@@H](CCCCN)C(=O)N[C@@H](CC(C)C)C(=O)O)[C@@H](C)O | Staphylococcus aureus | broth microdilution | USA300 LAC | 37 °C |  | MIC | 3.1 µM (≈ 8.82 µg/mL)
Cc1cn([C@H]2C[C@H](N=[N+]=[N-])[C@@H](CO)O2)c(=O)[nH]c1=O | HIV-1 | viral replication | human PBMC, subtype D 92UG001, dual-tropic clinical isolate |  |  | EC50 | 6.51 ± 1.27 nM
Cc1cc(/C=C/C#N)cc(C)c1-n1cnc2cnc(Nc3ccc(/C=C/C#N)cc3)nc21 | HIV-1 | viral replication, single-round infection | RT mutant V106A |  |  | EC50 | 11.3 ± 2.2 nM
Cc1cn([C@H]2C[C@H](N=[N+]=[N-])[C@@H](CO)O2)c(=O)[nH]c1=O | HIV-1 K65R | MTT | MT4 |  |  | IC50 | 13.5 ± 1 nM
Nc1ncnc2c([C@@H]3N[C@H](CO)[C@@H](O)[C@H]3O)c[nH]c12 | Marburg virus | surface glycoprotein expression | HeLa, Musoke | 50 µM, 12 h |  | inhibition | 91.8%
CCCC(=O)OCSc1ccccc1C(=O)NCCC(N)=O | HIV-1 | viral replication | human PBMC, subtype C 93MW959, CCR5-tropic clinical isolate |  |  | EC50 | 3080 ± 1220 nM
C[C@]1(CO)O[C@@H](n2cnc3c(=O)[nH]c(N)nc32)C[C@@H]1O | HIV-1 T215F |  | MT4 |  |  | IC50 | 185 ± 72 nM
Cc1cc(/C=C/C#N)cc(C)c1Nc1ccnc(Nc2ccc(C#N)cc2)n1 | HIV-1 | viral replication, single-round infection | RT mutant V106A/F227L |  |  | EC50 | ≤ 0.8 nM
CC[C@]1(CO)O[C@@H](n2cnc3c(N)nc(N)nc32)C[C@@H]1O | HIV-1 M184V |  | MT4 |  |  | IC50 | > 1000 nM
Cc1cc(/C=C/C#N)cc(C)c1-n1cnc2cnc(Nc3ccc4cc(C#N)ccc4c3)nc21 | HIV-1 | viral replication, single-round infection | RT mutant K101E/M184I |  |  | EC50 | > 7 nM
Nc1nc(N)c2ncn([C@H]3C[C@H](O)[C@](CO)(CF)O3)c2n1 | HIV-1 T215F | MTT | MT4 |  |  | IC50 | 3.2 nM
COc1ccccc1NC(=O)c1ccccc1Oc1ccc2c(c1)OCO2 | HIV-1 | viral replication, refers to: RT activity | H9 expressing A3G, LAI, X4-tropic wild type | day 7 |  | IC50 | 12600 nM
C#C[C@]1(CO)O[C@@H](n2cnc3c(=O)[nH]c(N)nc32)C[C@@H]1O | HIV-1 M184V | MTT | MT4 |  |  | IC50 | 4.4 ± 3.2 nM
COc1ccccc1NC(=O)c1ccccc1Oc1ccc([N+](=O)[O-])cc1 | HIV-1 | viral replication, refers to: RT activity | H9 expressing A3G, LAI, X4-tropic wild type | day 7 |  | IC50 | 4700 nM

For quick reference, copied from above:
Molecule | target or system | test | test system | conditions | scale | endpoint | value
Cc1cn([C@H]2C[C@H](N=[N+]=[N-])[C@@H](CO)O2)c(=O)[nH]c1=O | HIV-1 | viral replication | human PBMC, subtype D 92UG001, dual-tropic clinical isolate |  |  | EC50 | 6.51 ± 1.27 nM
COc1ccccc1NC(=O)c1ccccc1Sc1ccccc1 | HIV-1 | viral replication, refers to: RT activity | H9 expressing A3G, LAI, X4-tropic wild type | day 7 |  | IC50 | > 100000 nM
C[C@]1(CO)O[C@@H](n2cnc3c(=O)[nH]c(N)nc32)C[C@@H]1O | HIV-1 T215F |  | MT4 |  |  | IC50 | 185 ± 72 nM
